# Experimental data of several laboratories.
# Every numbered part comes from another study and shows a few of its results, in no order.

# Sample 1 — technique: RNA Bind-n-Seq; form: RNA; matrix: in vitro; concentration: 365 nM; baseline: no-protein control; reading: higher = stronger binding
# Target: RNA binding protein fox-1 homolog 2, RRM domain, GST-SBP tag (RBFOX2, Homo sapiens, UniProt O43251-10, residues 100-194)
# Notes: natural RNA segment, single round, ends assumed
# Constant ends, left off below: GGGAGUUCUACAGUCCGACGAUC … UGGAAUUCUCGGGUGCCAA
Strand,RBNS enrichment (R)
UGCUUUAGCUGUAGAGCUGGGUAUACUGUUGAUCCAGCUGUCCGUCAGGGACUUGAUAACCUGAUGUUUGAUGUAGAUCCCUGCUGGGGAGUCCACAACUAUGAAUGUAU,0.892
GAAUGAUGGGACGGCCUGAUGCUGUCAUGCUCUCCACUGCACCUGUGGCAGCCUCCUGAGAGCCACCAAGAUCUGGGAUGAAGGCCACACCAGCCAUGUCUGCUGAAGGG,0.414
ACCAUGUAUCUUGGCCGGUUUCAUAUUUGUAAGAAGCACCGGUAGGAACCUAAGAGCAUCGGUUGGAGUGUGACCUCUGAUGCCCCUGCAUUCCCGCCACUGUGUCUCUG,0.471
GCUCCUGCGUGCAUCCCCGGGAUGACCAGACUCCCGGACUCCUCAGGCAGUGCCCUUUCCUCCCACUUUUCCUCCCCCAUAGCCACAGGCCUCUGCUCCUGCUCCUGCCU,0.89
UGGGGUUUUUUUGUACAAAUUUAGCUAAUAGCUACAGGCUGAGAGAAUUGUAACAUAGCAUGACAAAUUUUGUGUUGACUUGAAAGGAAUCACACCAUUAUUCCUUAGAA,19.9

# Sample 2 — technique: protein-binding microarray; form: double-stranded DNA, one strand shown; matrix: in vitro; concentration: 250 nM; notes: 60-bp whole probe; with: salmon DNA 0.4 mg/ml; baseline: random background probes; reading: higher = stronger binding; constant ends, left off below: GCCTAGCAC … GTCTTGATTCGCTTGACGCTGCTG
# Target: Interferon regulatory factor 5, full length, phosphomimetic (IRF5, Homo sapiens, UniProt Q13568-2, residues 1-514, K96S/S451D/S453D/S456D/S462D)
Strand,log fluorescence [z-score]
TTAGATATCGGGTTTCGGTTAGTGCTA,8.67
TCAAGTTTCCCTCCCTGACTGTGCTAG,0.959
GACGAACTGAGTTCCGAGACGTGCTAG,-0.215
GACGGACTGGGACTGGGGACGTGCTAG,-0.534
TTAGATATCGGGACTCGATTAGTGCTA,1.12
TCAAAGCTCCTATCTTATACTGTGCTA,0.361

# Sample 3 — technique: universal PBM; form: double-stranded DNA, one strand shown; matrix: in vitro; concentration: 600 nM; reading: higher = stronger binding
# Target: Sal-like protein 4, full length isoform A (SALL4, Homo sapiens, UniProt Q9UJQ4, residues 1-1053)
# Sequence of UniProt Q9UJQ4 (whole entry, looked up): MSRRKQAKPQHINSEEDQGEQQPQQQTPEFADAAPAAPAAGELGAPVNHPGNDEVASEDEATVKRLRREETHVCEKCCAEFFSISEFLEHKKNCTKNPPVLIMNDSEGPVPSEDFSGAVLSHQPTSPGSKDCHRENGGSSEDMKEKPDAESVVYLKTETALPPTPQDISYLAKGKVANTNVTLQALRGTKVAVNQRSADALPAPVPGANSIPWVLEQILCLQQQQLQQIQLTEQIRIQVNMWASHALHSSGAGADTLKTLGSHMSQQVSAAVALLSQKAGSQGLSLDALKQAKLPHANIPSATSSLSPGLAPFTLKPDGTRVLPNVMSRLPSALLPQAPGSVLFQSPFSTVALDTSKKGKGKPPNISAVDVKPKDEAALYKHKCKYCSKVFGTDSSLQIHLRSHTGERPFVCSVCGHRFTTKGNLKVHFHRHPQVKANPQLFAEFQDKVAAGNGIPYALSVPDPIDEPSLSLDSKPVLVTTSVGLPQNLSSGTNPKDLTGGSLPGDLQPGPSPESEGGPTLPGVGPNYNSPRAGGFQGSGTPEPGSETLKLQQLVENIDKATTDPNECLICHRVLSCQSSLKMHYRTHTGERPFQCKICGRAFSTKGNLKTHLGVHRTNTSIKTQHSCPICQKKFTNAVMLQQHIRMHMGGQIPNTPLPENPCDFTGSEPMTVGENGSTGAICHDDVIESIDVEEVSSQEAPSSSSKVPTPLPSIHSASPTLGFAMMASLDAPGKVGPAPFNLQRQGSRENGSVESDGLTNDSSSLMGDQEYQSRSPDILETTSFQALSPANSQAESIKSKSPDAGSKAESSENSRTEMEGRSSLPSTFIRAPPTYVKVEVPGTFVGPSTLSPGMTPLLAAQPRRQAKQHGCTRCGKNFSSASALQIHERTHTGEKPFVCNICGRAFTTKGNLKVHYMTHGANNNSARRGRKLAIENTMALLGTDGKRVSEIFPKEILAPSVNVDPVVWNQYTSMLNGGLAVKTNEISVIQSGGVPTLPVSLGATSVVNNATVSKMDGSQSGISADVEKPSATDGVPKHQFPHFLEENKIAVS
# Notes: 8-mer, flanks averaged, mean of replicates
Strand,E-score
ACGTGTGC,-0.206
CAATTAAA,0.229
AGGCACTC,-0.143
AGAATCGG,-0.141
CGATGCCC,-0.335
AGATGCCG,-0.23
AGACAATA,0.323

# Single results of other studies
Molecule,target,test,system,setting,scale,quantity,value
"PhoQ, residues 284 288 289 292 302 303 TLASMF","PhoP, residues 12 14 15 18 19 LHTVL (Escherichia coli, UniProt P23836)","Sort-seq, measured: YFP reporter",E. coli,"PhoQ-PhoP variant library, with: 10 µM Mg2+","baseline: high Mg2+ state, higher = stronger signaling",fold induction,1.41

# Excerpt of the above (sample 3):
Strand,E-score
AGGCACTC,-0.143
AGAATCGG,-0.141
